Experimental data gathered from unrelated publications.
Compare with care: the assays were run in different laboratories. ± marks the error that the study gave.
Beta-lactamase CTX-M-14: Beta-lactamase CTX-M-14 (Escherichia coli, UniProt Q9L5C7)
ALB: Albumin (ALB, Bos taurus, UniProt P02769)
UniProt P02769, sequence (whole entry, looked up): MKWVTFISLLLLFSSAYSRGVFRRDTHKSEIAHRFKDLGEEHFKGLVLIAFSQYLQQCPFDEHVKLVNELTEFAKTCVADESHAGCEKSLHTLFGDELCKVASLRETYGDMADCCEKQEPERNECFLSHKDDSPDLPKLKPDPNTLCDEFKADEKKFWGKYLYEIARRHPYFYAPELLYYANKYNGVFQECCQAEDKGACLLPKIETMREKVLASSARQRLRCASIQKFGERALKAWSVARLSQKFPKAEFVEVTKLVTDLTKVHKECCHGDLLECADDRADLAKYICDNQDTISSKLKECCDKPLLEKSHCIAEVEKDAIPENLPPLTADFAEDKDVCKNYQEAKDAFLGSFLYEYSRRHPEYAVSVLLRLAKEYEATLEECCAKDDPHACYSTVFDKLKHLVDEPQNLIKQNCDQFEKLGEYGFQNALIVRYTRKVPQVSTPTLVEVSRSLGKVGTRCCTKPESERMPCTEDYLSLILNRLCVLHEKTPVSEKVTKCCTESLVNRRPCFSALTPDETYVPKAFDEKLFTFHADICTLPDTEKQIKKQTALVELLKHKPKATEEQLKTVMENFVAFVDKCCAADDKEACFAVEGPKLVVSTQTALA
UniProt P30041, sequence (whole entry, unmodified, looked up): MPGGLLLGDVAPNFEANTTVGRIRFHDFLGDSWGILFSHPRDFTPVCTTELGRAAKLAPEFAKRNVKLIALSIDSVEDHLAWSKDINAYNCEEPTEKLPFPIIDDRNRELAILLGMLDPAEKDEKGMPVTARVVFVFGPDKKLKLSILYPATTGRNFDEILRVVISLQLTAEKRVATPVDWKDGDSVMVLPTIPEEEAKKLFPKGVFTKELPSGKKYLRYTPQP
UniProt P05852, sequence (whole entry, looked up): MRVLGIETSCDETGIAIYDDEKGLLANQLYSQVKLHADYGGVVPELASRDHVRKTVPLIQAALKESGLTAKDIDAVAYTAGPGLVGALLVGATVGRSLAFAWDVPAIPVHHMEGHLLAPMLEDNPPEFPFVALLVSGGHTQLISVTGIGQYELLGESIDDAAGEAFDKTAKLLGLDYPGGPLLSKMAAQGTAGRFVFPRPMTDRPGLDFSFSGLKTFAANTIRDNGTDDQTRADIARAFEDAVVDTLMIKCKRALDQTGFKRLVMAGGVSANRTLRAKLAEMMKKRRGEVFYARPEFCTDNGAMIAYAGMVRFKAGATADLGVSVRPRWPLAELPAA
UniProt Q9EPX4, sequence (whole entry, looked up): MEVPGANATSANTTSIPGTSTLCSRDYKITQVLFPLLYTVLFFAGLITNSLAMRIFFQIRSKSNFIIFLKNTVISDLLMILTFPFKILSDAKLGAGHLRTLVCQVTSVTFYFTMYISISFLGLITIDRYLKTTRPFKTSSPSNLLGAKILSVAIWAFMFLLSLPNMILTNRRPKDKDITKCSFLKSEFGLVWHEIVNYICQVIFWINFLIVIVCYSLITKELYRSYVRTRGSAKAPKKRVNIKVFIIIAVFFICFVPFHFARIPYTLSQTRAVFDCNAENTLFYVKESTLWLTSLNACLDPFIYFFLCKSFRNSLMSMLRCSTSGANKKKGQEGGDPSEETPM
UniProt P01127, sequence (whole entry, looked up): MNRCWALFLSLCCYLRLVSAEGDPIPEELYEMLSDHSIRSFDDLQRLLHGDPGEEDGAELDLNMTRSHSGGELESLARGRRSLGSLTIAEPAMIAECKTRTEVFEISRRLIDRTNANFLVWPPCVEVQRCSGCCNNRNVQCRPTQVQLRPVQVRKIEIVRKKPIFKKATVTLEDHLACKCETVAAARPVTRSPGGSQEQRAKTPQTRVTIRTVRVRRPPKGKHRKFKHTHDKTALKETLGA
UniProt P06702, sequence (whole entry, looked up): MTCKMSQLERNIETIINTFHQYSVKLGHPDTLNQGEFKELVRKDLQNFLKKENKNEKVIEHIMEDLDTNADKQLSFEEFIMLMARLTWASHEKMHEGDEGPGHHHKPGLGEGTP

Structure (SMILES) | target | test | system | conditions | how to read | Kd [µM]
CC(C)C[C@H](NC(=O)[C@H](CCCCN)NC(=O)[C@H](CCCCN)NC(=O)[C@H](C)NC(=O)[C@H](CCCCN)NC(=O)[C@H](CCCCN)NC(=O)[C@@H]1CCCN1C(=O)[C@@H](NC(=O)[C@H](CCCCN)NC(=O)[C@@H]1CCCN1)[C@@H](C)O)C(=O)O | Cyclin-dependent kinase 5, with p25 (CDK5, Homo sapiens, UniProt Q00535) | substrate | – | 0.2 mM free Mg2+ | – | 12 ± 0.7
CO[C@@H]1O[C@H](CO)[C@@H](O[C@H]2O[C@H](CO)[C@@H](OP(=O)(O)O)[C@H](OP(=O)(O)O)[C@H]2O)[C@H]1OP(=O)(O)O | Inositol 1,4,5-trisphosphate-gated calcium channel ITPR1, N-terminal region (Itpr1, Rattus norvegicus, UniProt P29994, del318-332) | [3H]IP3 competition binding | – | N-terminal fragment | – | 0.00192
O=C(Nc1cccc(-c2nn[nH]n2)c1)c1cc(-c2cccs2)cc(C(F)(F)F)c1 | Beta-lactamase CTX-M-14 | surface plasmon resonance | – | 25 °C | – | 50.2 ± 0.6
CCCS(=O)(=O)N1CCN(Cc2ccc(NC(=O)c3ccc(-c4cc(NC(=O)C5CC5)ccc4OC(F)(F)F)cc3)cc2)CC1 | Genome polyprotein, NS5A domain 1 (Hepatitis C virus genotype 1b, UniProt Q9WMX2) | microscale thermophoresis | – | NS5A residues 26-202 | – | 0.67 ± 0.22
CC(=O)NCCN(CCC(=O)NCCN(CCC(=O)NCCN(CCC(=O)NCCC(N)=O)C(=O)[C@@H](N)Cc1ccccc1)C(=O)[C@@H](N)CCCNC(=N)N)C(=O)[C@@H](N)Cc1ccccc1 | HIV-1 TAR RNA (18-44) | fluorescence | – | 25 °C, together with: 100-fold excess natural tRNA | – | 1.7 ± 0.44
CC(C)CCC[C@@H](C)[C@H]1CC[C@H]2[C@@H]3CC=C4C[C@@H](OS(=O)(=O)O)CC[C@]4(C)[C@H]3CC[C@]12C | Prothrombin (F2, Homo sapiens, UniProt P00734) | binding, intrinsic fluorescence titration | – | pH 7.4, 25 °C | – | 181 ± 18.9
CC(C)C[C@H](NC(=O)[C@H](CCCNC(=N)N)NC(=O)CNC(=O)CNC(=O)[C@H](CO)NC(=O)[C@H](Cc1c[nH]cn1)NC(=O)[C@H](Cc1c[nH]c2ccccc12)NC(=O)[C@H](CO)NC(=O)CNC(=O)[C@H](Cc1c[nH]c2ccccc12)NC(=O)CNC(=O)[C@H](C)NC(=O)[C@@H](NC(=O)[C@H](CCC(N)=O)NC(=O)[C@H](CS)NC(=O)[C@H](CCCNC(=N)N)NC(=O)[C@@H](NC(=O)CN)[C@@H](C)O)C(C)C)C(=O)N[C@@H](CO)C(=O)N[C@@H](CCCNC(=N)N)C(=O)N[C@@H](Cc1ccccc1)C(=O)N1CCC[C@H]1C(=O)N[C@@H](CCCNC(=N)N)C(=O)N[C@@H](Cc1ccccc1)C(=O)N[C@H](C(=O)N[C@@H](CC(N)=O)C(=O)N[C@H](C(=O)O)C(C)C)C(C)C | Protein S100-A9 (S100A9, Homo sapiens, UniProt P06702) | binding, ELISA | – | – | – | 0.0373
CC(=O)NCCN(CCC(=O)NCCN(CCC(=O)NCCN(CCC(=O)NCCC(N)=O)C(=O)[C@@H](N)CCCNC(=N)N)C(=O)[C@@H](N)Cc1ccccc1)C(=O)[C@@H](N)Cc1ccccc1 | HIV-1 TAR RNA (18-44) | fluorescence | – | 25 °C, together with: 100-fold excess natural tRNA | – | 0.83 ± 0.19
NS(=O)(=O)c1c(F)c(F)c(SCCc2ccc(C(=O)O)cc2)c(F)c1F | Carbonic anhydrase 12 (CA12, Homo sapiens, UniProt O43570) | thermal shift | – | pH 7.0, 37 °C | – | 0.083
CC(=O)O[C@H]1C=C([C@H](C)[C@H]2CC(C)=C(C)C(=O)O2)[C@@]2(C)CC[C@H]3[C@@H](C[C@H]4O[C@]45[C@@H](O)C=CC(=O)[C@]35C)[C@]12O | Peroxiredoxin-6 (PRDX6, Homo sapiens, UniProt P30041, C47A) | binding, BLI | – | – | – | 68.4
CCCCCCCC(=O)N[C@@H](CCN)C(=O)N[C@H](C(=O)N[C@@H](CCN)C(=O)N[C@H]1CCNC(=O)[C@H]([C@@H](C)O)NC(=O)[C@H](CCN)NC(=O)[C@H](CCN)NC(=O)[C@H](CCSC)NC(=O)[C@@H](Cc2ccccc2)NC(=O)[C@H](CCN)NC1=O)[C@@H](C)O | anti-polymyxin B mouse IgM mAb | SPR | – | 25 °C | – | 8.8
CC(=O)NCCN(CCC(=O)NCCN(CCC(=O)NCCN(CCC(=O)NCCC(N)=O)C(=O)[C@@H](N)Cc1ccccc1)C(=O)[C@@H](N)CCCNC(=N)N)C(=O)[C@@H](N)CCCNC(=N)N | HIV-1 TAR RNA (18-44) | fluorescence | – | 25 °C, together with: 100-fold excess natural tRNA | – | 0.7 ± 0.2
CCCCCCCC(=O)N[C@@H](CCN)C(=O)N[C@H](C(=O)N[C@@H](CCN)C(=O)N[C@H]1CCNC(=O)[C@H]([C@@H](C)O)NC(=O)[C@H](CCN)NC(=O)[C@H](CCN)NC(=O)[C@H](CSCc2ccccc2)NC(=O)[C@@H](Cc2ccccc2)NC(=O)[C@H](CCN)NC1=O)[C@@H](C)O | anti-polymyxin B mouse IgM mAb | SPR | – | 25 °C | – | 5.15
CCCCCCCCCCCC(=O)Nc1ccccc1SSc1ccccc1NC(=O)CCCCCCCCCCC | ALB | binding, fluorescence quenching | – | pH 7.4, 298 K, together with: ibuprofen (site II marker) | – | 0.0191
CC[C@H](C)[C@H](NC(=O)[C@H](CCSC)NC(=O)[C@H](CCC(N)=O)NC(=O)[C@H](CCC(N)=O)NC(=O)CNC(=O)[C@@H](NC(=O)[C@H](CO)NC(=O)[C@@H]1CCCN1C(=O)[C@@H](N)CCC(N)=O)C(C)C)C(=O)N[C@@H](Cc1ccccc1)C(=O)N[C@@H](CCC(=O)O)C(=O)N[C@@H](CCC(=O)O)C(=O)N[C@@H](Cc1c[nH]cn1)C(=O)NCC(=O)N[C@@H](Cc1ccccc1)C(=O)N[C@@H](CCCNC(=N)N)C(=O)N[C@@H](CCCNC(=N)N)C(=O)N[C@H](C(=O)N[C@H](C(=O)N1CCC[C@H]1C(=O)N1CCC[C@H]1C(=O)N[C@H](C(=O)N[C@H](C(=O)N[C@@H](C)C(=O)N[C@H](C(=O)O)[C@@H](C)O)[C@@H](C)O)[C@@H](C)O)[C@@H](C)O)[C@@H](C)O | Platelet-derived growth factor subunit B, homodimer (Homo sapiens, UniProt P01127) | binding, radioligand equilibrium binding | – | 2 h, room temperature | – | 0.056
CCCCCCCCCCCCCCCC(=O)Nc1ccccc1SSc1ccccc1NC(=O)CCCCCCCCCCCCCCC | ALB | binding, fluorescence quenching | – | pH 7.4, 298 K | – | 980

Structure (SMILES) | target | test | system | conditions | how to read | Kd [µM]
CCCCCCCC[C@H]1NC(=O)[C@H](CCN)NC(=O)[C@@H](NC(=O)[C@H](CCN)NC(=O)[C@@H](NC(=O)[C@H](CCN)NC(=O)CCCCCCC)[C@@H](C)O)CCNC(=O)[C@H]([C@@H](C)O)NC(=O)[C@H](CCN)NC(=O)[C@H](CCN)NC(=O)[C@H](CC(C)C)NC1=O | anti-polymyxin B mouse IgM mAb | SPR | – | 25 °C | – | 0.43
N#Cc1cc(C(=O)OCC[18F])c(C(F)(F)F)nc1N1CCN(C(=O)Cc2ccccc2)CC1 | P2Y purinoceptor 12 (P2ry12, Rattus norvegicus, UniProt Q9EPX4) | binding in cells, radioligand | – | – | – | 0.0144
CCCCCCCCCCCCCC(=O)Nc1ccccc1SSc1ccccc1NC(=O)CCCCCCCCCCCCC | ALB | binding, fluorescence quenching, no site marker | – | pH 7.4, 298 K | – | 0.261
C[C@@H](O)[C@H](NC(=O)CP(=O)(O)OC[C@H]1O[C@@H](n2cnc3c(N)ncnc32)[C@H](O)[C@@H]1O)C(=O)O | tsaD, with TsaB (Escherichia coli, UniProt P05852) | microscale thermophoresis | – | together with: 0.5 µM unlabelled TsaB | – | 3.4
CC(=O)NCCN(CC(=O)NCCN(CC(=O)NCCN(CC(=O)NCCC(N)=O)C(=O)C[C@@H](N)Cc1ccccc1)C(=O)C[C@@H](N)Cc1ccccc1)C(=O)C[C@@H](N)CCCNC(=N)N | HIV-1 TAR RNA (18-44) | fluorescence | – | 25 °C, together with: 100-fold excess 15-mer duplex DNA | – | 0.3 ± 0.05
OC(Cc1cc(-c2ccc(C(O)C(F)(F)F)s2)sc1-c1ccc(-c2sc(-c3ccc(C(O)C(F)(F)F)s3)cc2CC(O)C(F)(F)F)s1)C(F)(F)F (centres unmarked) | Microtubule-associated protein tau, 0N4R isoform, aggregated (MAPT, Homo sapiens, UniProt P10636) | binding, fluorescence | 50% sucrose tau fraction | – | – | 1.08 ± 0.17
CC1(C)CC(=O)C2=C(C1)Oc1ncnc(Nc3ccccc3)c1C2c1ccccc1F (centres unmarked) | ALB | absorption titration | – | pH 7.2, 25 °C | – | 1.87
CCCCCCCC(=O)N[C@@H](CCN)C(=O)N[C@H](C(=O)N[C@@H](CCN)C(=O)N[C@H]1CCNC(=O)[C@H]([C@@H](C)O)NC(=O)[C@H]([C@@H](C)O)NC(=O)[C@H](CCN)NC(=O)[C@H](CC(C)C)NC(=O)[C@@H](Cc2ccccc2)NC(=O)[C@H](CCN)NC1=O)[C@@H](C)O | anti-polymyxin B mouse IgM mAb | SPR | – | 25 °C | – | > 25
O=C(Nc1cccc(-c2nn[nH]n2)c1)c1cc(-n2ccnc2)cc(C(F)(F)F)c1 | Beta-lactamase CTX-M-14 | surface plasmon resonance | – | 25 °C | – | 29.5 ± 0.6
C[C@H](NC(=O)[C@H](Cc1ccccc1)NC(=O)c1ccc(C(F)(F)F)cc1)C(=O)N[C@H](C(=O)N[C@@H](CCCC[N+](C)(C)C)C(=O)N[C@@H](CO)C(N)=O)C1CCCC1 | Chromobox protein homolog 8 (Homo sapiens, UniProt Q9HC52) | binding, ITC | – | pH 8 | – | 1.61
CC(=O)NCCN(CC(=O)NCCN(CC(=O)NCCN(CC(=O)NCCC(N)=O)C(=O)C[C@@H](N)Cc1ccccc1)C(=O)C[C@@H](N)CCCNC(=N)N)C(=O)C[C@@H](N)CCCNC(=N)N | HIV-1 TAR RNA (18-44) | fluorescence | – | 25 °C, together with: 100-fold excess 15-mer duplex DNA | – | 0.32 ± 0.05
CC(C)C[C@H](NC(=O)[C@@H]1CCCN1C(=O)[C@H](CCCCN)NC(=O)[C@H](CCCCN(CCc1ccccc1)C(C)C)NC(=O)[C@@H](NC(=O)CNC(=O)CN)C(C)C)C(=O)N[C@@H](CCCNC(=N)N)C(N)=O | PHD finger protein 1, Tudor domain Y47A (Homo sapiens, UniProt O43189, Y47A) | binding, isothermal titration calorimetry | – | Tudor domain | greater than value, fit not possible | > 100
O=C(Nc1cccc(-c2nn[nH]n2)c1)c1cc(-c2ccncn2)cc(C(F)(F)F)c1 | Beta-lactamase CTX-M-14 | surface plasmon resonance | – | 25 °C | – | 8.34 ± 0.08
CC(C)=CCC/C(C)=C/CC/C(C)=C/CC/C(C)=C/CSC[C@H](NC(=O)CNC(=O)[C@H](CO)NC(=O)[C@H](CCCCN)NC(=O)[C@H](CCCCN)NC(=O)[C@H](CCCCN)NC(=O)CNC(=O)[C@H](CCCNC(=N)N)NC(=O)[C@H](CCCNC(=N)N)NC(=O)[C@H](C)NC(=O)c1ccc2c(c1)C(=O)OC21c2ccc(O)cc2Oc2cc(O)ccc21)C(=O)N[C@@H](CC(C)C)C(=O)N[C@H](C(=O)N[C@@H](CC(C)C)C(=O)O)C(C)C | Rap1 GTPase-GDP dissociation stimulator 1, SmgGDS-607 isoform (RAP1GDS1, Homo sapiens, UniProt P52306) | binding, fluorescence anisotropy | – | together with: prenylated RhoA peptide | – | > 16
O=C(Nc1cccc(-c2nn[nH]n2)c1)c1cc(-c2ncc[nH]2)cc(C(F)(F)F)c1 | Beta-lactamase CTX-M-14 | surface plasmon resonance | – | 25 °C | – | 8.63 ± 0.17
C[n+]1cc(NC(=O)c2ccc3ccc4ccc(C(=O)Nc5cc6ccccc6[n+](C)c5)nc4c3n2)cc2ccccc21 | G-quadruplex DNA 22CTA (human) | binding, fluorimetric titration | 100 mM KCl buffer | pH 7.2, together with: 5'-Cy5-labelled G4 2 nM | – | 0.0168 ± 0.0094

Excerpt of the above:
Structure (SMILES) | target | test | system | conditions | how to read | Kd [µM]
CC(C)C[C@H](NC(=O)[C@@H]1CCCN1C(=O)[C@H](CCCCN)NC(=O)[C@H](CCCCN(CCc1ccccc1)C(C)C)NC(=O)[C@@H](NC(=O)CNC(=O)CN)C(C)C)C(=O)N[C@@H](CCCNC(=N)N)C(N)=O | PHD finger protein 1, Tudor domain Y47A (Homo sapiens, UniProt O43189, Y47A) | binding, isothermal titration calorimetry | – | Tudor domain | greater than value, fit not possible | > 100
CCCCCCCC[C@H]1NC(=O)[C@H](CCN)NC(=O)[C@@H](NC(=O)[C@H](CCN)NC(=O)[C@@H](NC(=O)[C@H](CCN)NC(=O)CCCCCCC)[C@@H](C)O)CCNC(=O)[C@H]([C@@H](C)O)NC(=O)[C@H](CCN)NC(=O)[C@H](CCN)NC(=O)[C@H](CC(C)C)NC1=O | anti-polymyxin B mouse IgM mAb | SPR | – | 25 °C | – | 0.43
